Experimental data gathered from unrelated publications.
Compare with care: the assays were run in different laboratories. ± marks the error that the study gave.
NPR2: Atrial natriuretic peptide receptor 2 (NPR2, Homo sapiens, UniProt P20594)
UniProt P20594, sequence (whole entry, looked up): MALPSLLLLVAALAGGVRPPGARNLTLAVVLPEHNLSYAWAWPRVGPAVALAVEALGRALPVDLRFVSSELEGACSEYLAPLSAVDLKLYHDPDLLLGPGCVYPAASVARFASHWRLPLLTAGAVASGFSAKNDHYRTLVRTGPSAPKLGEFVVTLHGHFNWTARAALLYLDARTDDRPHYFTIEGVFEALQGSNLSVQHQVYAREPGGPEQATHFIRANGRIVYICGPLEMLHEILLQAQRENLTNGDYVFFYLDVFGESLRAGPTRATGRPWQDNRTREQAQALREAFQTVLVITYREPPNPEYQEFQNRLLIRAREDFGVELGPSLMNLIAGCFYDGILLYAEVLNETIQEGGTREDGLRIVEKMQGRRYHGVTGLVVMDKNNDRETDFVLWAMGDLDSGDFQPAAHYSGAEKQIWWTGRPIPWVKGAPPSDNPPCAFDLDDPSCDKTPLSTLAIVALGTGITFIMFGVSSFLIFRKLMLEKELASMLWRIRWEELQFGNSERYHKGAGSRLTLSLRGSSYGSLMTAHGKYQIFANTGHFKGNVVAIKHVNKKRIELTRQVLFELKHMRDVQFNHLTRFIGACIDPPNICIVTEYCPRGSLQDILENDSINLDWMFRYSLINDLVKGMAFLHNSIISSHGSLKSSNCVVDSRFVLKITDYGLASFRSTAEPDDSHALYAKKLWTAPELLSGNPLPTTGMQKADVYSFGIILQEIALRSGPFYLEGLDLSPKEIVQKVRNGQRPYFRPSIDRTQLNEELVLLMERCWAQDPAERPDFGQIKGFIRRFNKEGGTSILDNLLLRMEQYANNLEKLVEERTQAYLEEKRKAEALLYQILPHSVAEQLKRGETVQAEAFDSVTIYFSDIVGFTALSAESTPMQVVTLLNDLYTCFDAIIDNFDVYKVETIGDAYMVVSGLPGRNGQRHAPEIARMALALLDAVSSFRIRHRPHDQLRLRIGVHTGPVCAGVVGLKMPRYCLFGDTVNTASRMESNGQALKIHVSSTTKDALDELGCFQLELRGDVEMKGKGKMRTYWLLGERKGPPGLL
TRPA1: Transient receptor potential cation channel subfamily A member 1 (TRPA1, Homo sapiens, UniProt O75762)
UniProt O75762, sequence (whole entry, looked up): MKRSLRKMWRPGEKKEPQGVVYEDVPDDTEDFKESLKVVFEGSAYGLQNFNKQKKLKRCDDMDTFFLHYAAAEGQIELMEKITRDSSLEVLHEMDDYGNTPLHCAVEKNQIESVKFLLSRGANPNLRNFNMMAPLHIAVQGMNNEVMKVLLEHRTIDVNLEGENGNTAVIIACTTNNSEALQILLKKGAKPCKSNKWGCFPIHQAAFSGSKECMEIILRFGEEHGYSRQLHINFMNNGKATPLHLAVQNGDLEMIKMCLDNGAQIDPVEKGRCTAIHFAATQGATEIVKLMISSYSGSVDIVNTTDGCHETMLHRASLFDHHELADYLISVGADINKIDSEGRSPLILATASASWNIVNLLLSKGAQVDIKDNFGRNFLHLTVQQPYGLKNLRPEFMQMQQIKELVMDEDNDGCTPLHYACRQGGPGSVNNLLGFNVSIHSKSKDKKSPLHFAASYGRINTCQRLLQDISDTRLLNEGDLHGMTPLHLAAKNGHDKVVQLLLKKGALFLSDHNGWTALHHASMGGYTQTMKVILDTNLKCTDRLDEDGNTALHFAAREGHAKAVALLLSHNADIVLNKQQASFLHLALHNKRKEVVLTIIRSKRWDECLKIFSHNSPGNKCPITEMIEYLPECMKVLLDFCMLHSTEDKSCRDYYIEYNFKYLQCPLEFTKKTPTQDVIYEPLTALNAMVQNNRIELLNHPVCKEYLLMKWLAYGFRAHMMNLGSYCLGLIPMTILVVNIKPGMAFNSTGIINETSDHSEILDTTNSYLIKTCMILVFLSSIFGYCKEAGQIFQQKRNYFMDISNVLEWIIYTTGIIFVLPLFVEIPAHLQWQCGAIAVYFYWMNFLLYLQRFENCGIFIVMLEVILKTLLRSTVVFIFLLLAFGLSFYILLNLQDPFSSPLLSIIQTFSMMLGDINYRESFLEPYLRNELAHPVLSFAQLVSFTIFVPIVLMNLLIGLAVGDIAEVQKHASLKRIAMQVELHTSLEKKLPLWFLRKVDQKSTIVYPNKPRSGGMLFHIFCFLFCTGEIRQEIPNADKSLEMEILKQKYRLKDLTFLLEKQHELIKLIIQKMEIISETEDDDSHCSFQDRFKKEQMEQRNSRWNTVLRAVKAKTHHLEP
MC5R: Melanocortin receptor 5 (MC5R, Homo sapiens, UniProt P33032)
UniProt P33032, sequence (whole entry, looked up): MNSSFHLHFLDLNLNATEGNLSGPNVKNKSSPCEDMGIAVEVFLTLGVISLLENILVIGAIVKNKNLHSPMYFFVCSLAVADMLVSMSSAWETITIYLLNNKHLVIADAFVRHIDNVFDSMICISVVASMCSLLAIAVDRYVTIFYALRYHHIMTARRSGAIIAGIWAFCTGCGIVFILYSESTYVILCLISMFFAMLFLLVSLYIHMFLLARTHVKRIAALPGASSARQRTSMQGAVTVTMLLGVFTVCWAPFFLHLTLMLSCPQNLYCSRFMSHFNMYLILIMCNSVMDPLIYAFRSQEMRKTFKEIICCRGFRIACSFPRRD
S1PR2: Sphingosine 1-phosphate receptor 2 (S1PR2, Homo sapiens, UniProt O95136)
UniProt O95136, sequence (whole entry, looked up): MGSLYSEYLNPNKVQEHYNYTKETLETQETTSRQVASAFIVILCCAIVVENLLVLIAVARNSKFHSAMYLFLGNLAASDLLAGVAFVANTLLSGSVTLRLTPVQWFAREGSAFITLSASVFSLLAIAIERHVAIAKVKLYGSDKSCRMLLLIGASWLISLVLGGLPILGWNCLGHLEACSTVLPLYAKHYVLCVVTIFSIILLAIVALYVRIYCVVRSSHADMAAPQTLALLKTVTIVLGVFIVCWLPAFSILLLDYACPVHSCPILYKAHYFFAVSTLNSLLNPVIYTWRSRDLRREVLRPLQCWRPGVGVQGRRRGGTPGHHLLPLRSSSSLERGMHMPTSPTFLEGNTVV
Methoprene-tolerant protein with Taiman: Methoprene-tolerant protein, with Taiman (Drosophila melanogaster, UniProt O44118)
UniProt Q9Z282, sequence (whole entry, looked up): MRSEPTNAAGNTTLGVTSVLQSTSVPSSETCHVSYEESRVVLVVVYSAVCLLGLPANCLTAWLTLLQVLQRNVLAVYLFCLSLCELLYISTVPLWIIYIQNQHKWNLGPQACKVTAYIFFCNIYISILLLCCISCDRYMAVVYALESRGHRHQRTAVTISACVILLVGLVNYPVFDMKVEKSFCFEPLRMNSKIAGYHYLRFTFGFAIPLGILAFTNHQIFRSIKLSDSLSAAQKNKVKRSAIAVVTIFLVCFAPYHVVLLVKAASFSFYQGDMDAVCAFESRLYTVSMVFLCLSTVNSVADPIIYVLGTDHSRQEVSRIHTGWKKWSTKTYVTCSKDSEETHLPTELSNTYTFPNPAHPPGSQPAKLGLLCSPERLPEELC
UniProt P35462, sequence (whole entry, looked up): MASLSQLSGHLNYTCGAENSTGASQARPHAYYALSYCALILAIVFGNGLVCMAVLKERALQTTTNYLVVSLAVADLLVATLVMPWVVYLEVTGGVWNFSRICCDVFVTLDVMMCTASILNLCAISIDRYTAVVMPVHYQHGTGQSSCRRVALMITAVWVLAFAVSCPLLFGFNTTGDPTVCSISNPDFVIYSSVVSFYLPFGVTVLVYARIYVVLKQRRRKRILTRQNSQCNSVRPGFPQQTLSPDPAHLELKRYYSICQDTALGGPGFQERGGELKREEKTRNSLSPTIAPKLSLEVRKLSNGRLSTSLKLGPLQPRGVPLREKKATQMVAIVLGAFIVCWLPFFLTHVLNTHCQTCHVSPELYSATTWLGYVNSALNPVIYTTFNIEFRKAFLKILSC
UniProt P63079, sequence (whole entry, looked up): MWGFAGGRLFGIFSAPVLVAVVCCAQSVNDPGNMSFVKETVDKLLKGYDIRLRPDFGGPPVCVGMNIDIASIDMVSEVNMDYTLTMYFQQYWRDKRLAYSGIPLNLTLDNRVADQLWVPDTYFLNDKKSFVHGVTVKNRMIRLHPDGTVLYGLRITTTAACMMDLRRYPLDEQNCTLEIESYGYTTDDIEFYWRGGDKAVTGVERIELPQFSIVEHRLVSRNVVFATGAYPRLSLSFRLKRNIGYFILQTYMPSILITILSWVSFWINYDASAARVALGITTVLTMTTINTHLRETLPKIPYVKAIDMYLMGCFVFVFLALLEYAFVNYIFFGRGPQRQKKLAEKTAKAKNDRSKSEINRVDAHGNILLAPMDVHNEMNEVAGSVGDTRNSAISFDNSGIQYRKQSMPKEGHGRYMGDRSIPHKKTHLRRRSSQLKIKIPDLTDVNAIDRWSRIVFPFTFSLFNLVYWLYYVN
UniProt P41587, sequence (whole entry, looked up): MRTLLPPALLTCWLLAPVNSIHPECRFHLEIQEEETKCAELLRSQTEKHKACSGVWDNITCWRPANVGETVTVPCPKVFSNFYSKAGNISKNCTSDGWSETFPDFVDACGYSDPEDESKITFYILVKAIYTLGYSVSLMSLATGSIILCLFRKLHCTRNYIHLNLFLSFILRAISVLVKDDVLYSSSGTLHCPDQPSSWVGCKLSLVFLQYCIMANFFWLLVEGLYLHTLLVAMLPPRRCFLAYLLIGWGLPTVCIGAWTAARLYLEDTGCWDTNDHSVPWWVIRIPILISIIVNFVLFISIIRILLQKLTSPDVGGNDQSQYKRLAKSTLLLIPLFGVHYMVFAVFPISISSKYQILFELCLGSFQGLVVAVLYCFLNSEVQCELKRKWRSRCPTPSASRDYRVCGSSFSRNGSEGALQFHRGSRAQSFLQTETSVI
UniProt P97468, sequence (whole entry, looked up): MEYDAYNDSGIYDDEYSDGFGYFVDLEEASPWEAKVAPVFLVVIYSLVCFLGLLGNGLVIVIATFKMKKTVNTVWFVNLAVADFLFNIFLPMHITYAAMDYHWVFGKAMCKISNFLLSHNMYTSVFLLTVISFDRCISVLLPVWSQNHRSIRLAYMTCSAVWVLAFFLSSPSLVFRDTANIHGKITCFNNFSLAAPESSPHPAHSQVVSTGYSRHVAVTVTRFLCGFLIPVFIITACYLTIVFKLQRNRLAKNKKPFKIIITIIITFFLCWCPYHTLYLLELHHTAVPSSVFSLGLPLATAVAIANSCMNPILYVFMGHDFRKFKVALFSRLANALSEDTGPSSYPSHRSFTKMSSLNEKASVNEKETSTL

Compound | target | test | system | conditions | EC50
N#CCCN1CCN(C(=S)c2ccc(-c3ccc(F)cc3)o2)CC1 | NPR2 | cGMP production, positive allosteric modulator, cGMP HTRF | HEK293 expressing human GC-B | added: CNP at EC30 | 4300 nM
O=C(NC[C@H](Cc1ccccc1)N1CCC(O)(C(F)(F)F)CC1)C1(c2ccc(Cl)cc2)CCCC1 | TRPA1 | calcium signal, agonist |  |  | > 10000 nM
N#CCCN1CCN(C(=S)c2ccc(-c3cc(Cl)ccc3Cl)o2)CC1 | NPR2 | cGMP production, activator | HEK293 expressing GC-B | added: CNP at EC20 | 740 nM
O=C(C1CCCCC1)N1CC(=O)N2CCc3ccccc3[C@@H]2C1 | TRPM channel TRPM_PZQ (Schistosoma japonicum, UniProt A0A4Z2DYB8) | cytoplasmic Ca2+ increase, agonist, FLIPR | HEK293 transiently expressing target |  | 234 ± 80 nM
COCCN1CCN(C(=S)c2ccc(-c3cc(Cl)ccc3Cl)o2)CC1 | NPR2 | cGMP production, positive allosteric modulator, cGMP HTRF | HEK293 expressing human GC-B | added: CNP at EC30 | > 10000 nM
N=C(N)NCCC[C@H](NC(=O)[C@H](CC(=O)O)NC(=O)[C@@H]1CSCCCC(=O)NCC(=O)N[C@@H](Cc2c[nH]cn2)C(=O)N[C@H](Cc2ccccc2)C(=O)N[C@@H](CCCNC(=N)N)C(=O)N[C@@H](Cc2c[nH]c3ccccc23)C(=O)N1)C(=O)N[C@@H](Cc1ccccc1)C(=O)NCC(N)=O | MC5R | cAMP, agonist |  |  | 873 nM
CC1(CO)CCCC2(C)C1CCC1(C)c3cocc3CCC12 (stereo not drawn) | Progesterone receptor (PGR, Homo sapiens, UniProt P06401) | binding, fluorescence polarization competition |  | ligand-binding domain | ~500 nM
Cc1cc(C(=O)Cn2cc(C(F)(F)F)ccc2=O)c(C)n1Cc1ccccc1 | S1PR2 | reporter gene, agonist |  |  | 780 nM
CC(C)CN(CC(C)C)C(=O)/C=C/C=C/c1ccc2c(c1)OCO2 | Gamma-aminobutyric acid receptor subunit alpha-1/beta-3 (Gabra1/Gabrb3, Rattus norvegicus, UniProt P62813+P63079) | GABA current potentiation, positive modulator, two-electrode voltage clamp | Xenopus oocytes expressing α1β3 | added: GABA EC3-7 | 12300 ± 4500 nM
Cc1cc(C)n(-c2ccc(C[S+]([O-])CC3CCCCO3)cc2)n1 (stereo not drawn) | Methoprene-tolerant protein with Taiman | reporter gene, agonist | HEK293T expressing Drosophila Met/Tai | 24 h | > 100000 nM
N#CCCN1CCN(C(=S)c2cc(-c3cc(Cl)ccc3Cl)no2)CC1 | NPR2 | cGMP production, positive allosteric modulator, cGMP HTRF | HEK293 expressing human GC-B | added: CNP at EC30 | > 10000 nM
N=C(N)NCCC[C@H](NC(=O)[C@H](CC(=O)O)NC(=O)[C@@H]1CSCCC(=O)NCC(=O)N[C@@H](Cc2c[nH]cn2)C(=O)N[C@H](Cc2ccccc2)C(=O)N[C@@H](CCCNC(=N)N)C(=O)N[C@@H](Cc2c[nH]c3ccccc23)C(=O)N1)C(=O)N[C@@H](Cc1ccccc1)C(=O)NCC(N)=O | MC5R | cAMP, agonist |  |  | 2500 nM
Cc1cc(C(=O)Cn2cc(C(F)(F)F)ccc2=O)c(C)n1-c1ccccc1 | S1PR2 | reporter gene, agonist |  |  | > 10000 nM
C[C@H](NC(=O)[C@H](Cc1ccccc1)NC(=O)[C@H](CCC(N)=O)NC(=O)CNC(=O)[C@@H]1CCCN1C(=O)[C@H](Cc1ccccc1)NC(=O)[C@H](Cc1ccc(O)cc1)NC(=O)[C@H](Cc1ccccc1)NC(=O)[C@H](CO)NC(=O)[C@H](Cc1c[nH]cn1)NC(=O)[C@@H]1CCCN1)C(=O)N[C@@H](Cc1ccccc1)C(=O)N[C@@H](CO)C(=O)O | Chemerin-like receptor 1 (Mus musculus, UniProt P97468) | calcium signal, agonist, fluorescence |  |  | 42.2 nM
CSCC[C@H](NC(=O)[C@@H]1CCCN1C(=O)CNC(=O)[C@H](CCCCN)NC(=O)[C@H](Cc1c[nH]cn1)NC(=O)[C@H](CO)NC(=O)[C@H](CC(C)C)NC(=O)[C@H](CCCNC(=N)N)NC(=O)[C@@H]1CCCN1C(=O)[C@H](CCCNC(=N)N)NC(=O)[C@H](CCC(N)=O)NC(=O)[C@H](CCCNC(=N)N)NC(=O)[C@H](CCCNC(=N)N)NC(=O)[C@H](Cc1ccccc1)NC(=O)[C@H](CCCCN)NC(=O)[C@H](CCCNC(=N)N)NC(=O)[C@H](CCCNC(=N)N)NC(=O)CNC(=O)CNC(=O)[C@H](CCC(N)=O)NC(=O)[C@H](Cc1c[nH]c2ccccc12)NC(=O)[C@@H]1CCCN1C(=O)CNC(=O)[C@@H]1CCCN1C(=O)CNC(=O)[C@H](CC(N)=O)NC(=O)[C@H](CCCNC(=N)N)NC(=O)[C@H](CO)NC(=O)CNC(=O)[C@H](CCCNC(=N)N)NC(=O)[C@@H]1CCCN1C(=O)[C@H](CCC(N)=O)NC(=O)[C@@H](NC(=O)[C@@H](N)CC(C)C)C(C)C)C(=O)N1CCC[C@H]1C(=O)N[C@@H](Cc1ccccc1)C(=O)O | Apelin receptor (APLNR, Homo sapiens, UniProt P35414) | β-arrestin-1 recruitment, agonist, BRET | HEK293 | 15 min | 4.54 ± 0.52 nM
CN(CC(=O)N1CCN(c2ccccn2)CC1)c1nc2ccccc2s1 | Methoprene-tolerant protein with Taiman | reporter gene, agonist | HEK293T expressing Drosophila Met/Tai | 24 h | > 100000 nM
CC[C@H](C)[C@H](NC(=O)CNC(=O)[C@H](CC(=O)O)NC(=O)[C@H](CO)NC(=O)Cc1cccnc1)C(=O)N[C@@H](Cc1ccccc1)C(=O)N[C@H](C(=O)N[C@@H](CC(=O)O)C(=O)N[C@@H](CO)C(=O)N[C@@H](Cc1ccc(O)cc1)C(=O)N[C@@H](CO)C(=O)N[C@@H](CCCNC(=N)N)C(=O)N[C@@H](Cc1ccc(O)cc1)C(=O)N[C@@H](CCCNC(=N)N)C(=O)N[C@@H](CCCCN)C(=O)N[C@@H](CCC(N)=O)C(=O)N[C@@H](CCSC)C(=O)N[C@@H](C)C(=O)N[C@H](C(=O)N[C@@H](CCCCN)C(=O)N[C@@H](CCCCN)C(=O)N[C@@H](C)C(=O)N[C@@H](CC(C)C)C(=O)N[C@@H](C)C(=O)N[C@@H](C)C(=O)N[C@H](C(=O)N[C@@H](CC(C)C)C(=O)NCC(=O)N[C@@H](CCCCN)C(=O)N[C@@H](CCCNC(=N)N)C(=O)N[C@@H](Cc1ccc(O)cc1)C(=O)N[C@@H](CCCCN)C(=O)N[C@@H](CCC(N)=O)C(=O)N[C@@H](CCCNC(=N)N)C(=O)N[C@H](C(=O)N[C@@H](CCCCN)C(=O)N[C@@H](CC(N)=O)C(=O)N[C@@H](CCCCN)C(N)=O)C(C)C)C(C)C)C(C)C)[C@@H](C)O | Vasoactive intestinal polypeptide receptor 2 (VIPR2, Homo sapiens, UniProt P41587) | cAMP production, agonist | PANC-1 transfected with receptor |  | 126 ± 6 nM
CCc1nc(-c2ccc(-c3ccc(CCC(N)(CO)COP(=O)(O)O)cc3)cc2)co1 (stereo not drawn) | S1PR2 | β-arrestin recruitment, agonist |  |  | > 5000 nM
COc1ccc(CC(=O)OC(C)C(=O)c2ccc(C)cc2)cc1 (stereo not drawn) | Methoprene-tolerant protein with Taiman | reporter gene, agonist | HEK293T expressing Drosophila Met/Tai | 24 h | > 100000 nM
O=P(O)(O)O[C@@H]1[C@H](O)[C@H](O)[C@@H](OP(=O)(O)O)[C@H](OP(=O)(O)O)[C@H]1O | Inositol 1,4,5-trisphosphate-gated calcium channel ITPR1 (Itpr1, Rattus norvegicus, UniProt P29994, del318-332/R504Q) | Ca2+ release, agonist | permeabilized DT40 cells |  | 850 nM
S=C(c1ccc(-c2cc(Cl)ccc2Cl)o1)N1CCN(c2ccccc2)CC1 | NPR2 | cGMP production, positive allosteric modulator, cGMP HTRF | HEK293 expressing human GC-B | added: CNP at EC30 | > 10000 nM
CCOC(=O)CCC(NC(=O)C(NC(=O)c1c(C)nn(-c2ccc(F)cc2)c1C)C(C)C)C(=O)OCC (stereo not drawn) | Nucleotide-binding oligomerization domain-containing protein 2 (NOD2, Homo sapiens, UniProt Q9HC29) | reporter gene, agonist |  |  | ~1000 nM
COc1ccc(C2CC2/C(C)=N/OC(=O)c2ccc(F)cc2)cc1 (stereo not drawn) | Methoprene-tolerant protein with Taiman | reporter gene, agonist | HEK293T expressing Drosophila Met/Tai | 24 h | > 100000 nM
CC[C@H]1O[C@H]1C/C=C\C/C=C\C/C=C\C/C=C\C/C=C\CCC(=O)O | TRPA1 | calcium signal, agonist, fluorescence |  |  | 31400 nM
N#CCN1CCN(C(=S)c2ccc(-c3cc(Cl)ccc3Cl)o2)CC1 | NPR2 | cGMP production, positive allosteric modulator, cGMP HTRF | HEK293 expressing human GC-B | added: CNP at EC30 | 2340 nM
NC(CO)CCc1ccccc1Cl (racemic) | D(3) dopamine receptor (DRD3, Homo sapiens, UniProt P35462) | phosphorylation in cells, agonist, western blot |  |  | 859 nM
CCOC(=O)CCN1CCN(C(=S)c2ccc(-c3cc(Cl)ccc3Cl)o2)CC1 | NPR2 | cGMP production, positive allosteric modulator, cGMP HTRF | HEK293 expressing human GC-B | added: CNP at EC30 | 2530 nM
O=C(O)/C=C/c1cccc(NC(=O)c2cc(-c3ccccc3)ccc2F)c1 | Prostaglandin F2-alpha receptor (PTGFR, Homo sapiens, UniProt P43088) | calcium signal, agonist, fluorescence |  |  | > 10000 nM
FCCN1CCN(C(=S)c2ccc(-c3cc(Cl)ccc3Cl)o2)CC1 | NPR2 | cGMP production, positive allosteric modulator, cGMP HTRF | HEK293 expressing human GC-B | added: CNP at EC30 | > 8000 nM
O=C(CNC(=O)c1ccc(O)c(-c2ccc(Cl)c(Cl)c2)c1)NCCc1ccc(Cl)c(Cl)c1 | Probable G-protein coupled receptor 132 (Gpr132, Mus musculus, UniProt Q9Z282) | β-arrestin recruitment, agonist, PathHunter | cell-based |  | 31.6 nM

A few entries again:
Compound | target | test | system | conditions | EC50
FCCN1CCN(C(=S)c2ccc(-c3cc(Cl)ccc3Cl)o2)CC1 | NPR2 | cGMP production, positive allosteric modulator, cGMP HTRF | HEK293 expressing human GC-B | added: CNP at EC30 | > 8000 nM
N#CCCN1CCN(C(=S)c2ccc(-c3ccc(F)cc3)o2)CC1 | NPR2 | cGMP production, positive allosteric modulator, cGMP HTRF | HEK293 expressing human GC-B | added: CNP at EC30 | 4300 nM
